Experimental data collected from several papers.
Parts stem from different laboratories: compare values within a part only. Positions count from the first letter of the parent shown.

Block 1
Target: ABI1, truncated, D143A, DHFR fusion (Arabidopsis thaliana)
Method: DHFR PCA, deep sequencing
Medium: yeast
Notes: methotrexate growth selection, single substitutions
With: (+)-ABA 1.4 µM
Relative to: wild-type fitted maximum
Reading: higher = stronger binding
Quantity: relative binding score
Starting sequence: PYL1, truncated, DHFR fusion (Arabidopsis thaliana); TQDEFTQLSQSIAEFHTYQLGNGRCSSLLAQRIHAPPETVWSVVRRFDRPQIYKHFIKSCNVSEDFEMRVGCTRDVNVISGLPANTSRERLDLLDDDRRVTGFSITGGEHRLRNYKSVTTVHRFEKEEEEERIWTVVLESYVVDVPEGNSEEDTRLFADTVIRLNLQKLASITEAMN; partner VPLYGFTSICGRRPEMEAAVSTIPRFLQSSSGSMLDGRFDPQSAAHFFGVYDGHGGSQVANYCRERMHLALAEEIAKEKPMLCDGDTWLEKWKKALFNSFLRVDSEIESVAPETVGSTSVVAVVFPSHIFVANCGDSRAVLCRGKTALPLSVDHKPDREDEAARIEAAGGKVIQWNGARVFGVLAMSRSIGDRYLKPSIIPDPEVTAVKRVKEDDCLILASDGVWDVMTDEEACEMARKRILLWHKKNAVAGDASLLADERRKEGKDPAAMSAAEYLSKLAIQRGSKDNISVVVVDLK
L29M: 27.9%
T17D: 5.55%
E89H: 3.12%
F124V: 59.6%
L166E: 9.48%
C60D: -9.42%
L8K: -11.5%
V143C: 47.7%
R98P: 8.4%
E38Q: 24.7%
N177Q: 49.7%
T135M: -7.08%
G108R: -3.39%
T154P: -9.88%
Y53K: -20.5%
E38I: 13.5%
V78N: 23.6%
L93E: 13.5%
R155Y: -6.15%
V62C: 11.5%

Block 2
Target: CCND2, cyclin fold, Cln2 fusion (human)
Method: yeast growth competition, sequencing
Medium: yeast
Notes: weak parent motif
Relative to: not given
Reading: higher = stronger binding
Quantity: normalised enrichment score
Starting sequence: PKMYT1 docking peptide (human); SFEPRNLLSLFED; partner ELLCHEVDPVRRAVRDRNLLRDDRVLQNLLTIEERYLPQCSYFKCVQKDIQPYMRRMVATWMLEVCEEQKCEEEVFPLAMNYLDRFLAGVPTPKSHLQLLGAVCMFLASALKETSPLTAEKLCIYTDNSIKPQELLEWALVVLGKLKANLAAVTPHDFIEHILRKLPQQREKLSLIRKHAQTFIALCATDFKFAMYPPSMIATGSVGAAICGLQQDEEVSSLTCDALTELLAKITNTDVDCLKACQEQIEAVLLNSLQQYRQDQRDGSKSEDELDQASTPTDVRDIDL
S1G: -0.0137
S9P: 0.0736
E12K: 0.107
L10P: -0.185
E12Y: 0.0479
F2L: 0.0354
D13M: 0.119
N6F: 0.258
E3A: -0.105
L10M: 0.22
S9K: -0.0521
D13P: 0.152
E3T: -0.0347
F11N: -0.0314
F2W: 0.225
P4L: 0.0329
R5H: -0.287
N6T: -0.133
N6I: 0.167
L8H: 0.142
N6Y: 0.135
S9A: 0.391
L10Y: -0.132
E12H: 0.262
E3H: 0.239

Block 3
Target: RNA binding protein fox-1 homolog 2, RRM domain, GST-SBP tag (RBFOX2, Homo sapiens, UniProt O43251-10, residues 100-194)
Method: RNA Bind-n-Seq
Molecule type: RNA
Medium: in vitro
Tested at: 365 nM
Notes: natural RNA segment, single round, ends assumed
Relative to: no-protein control
Reading: higher = stronger binding
Quantity: RBNS enrichment (R)
Constant ends, left off below: GGGAGUUCUACAGUCCGACGAUC … UGGAAUUCUCGGGUGCCAA
Target sequence (chain): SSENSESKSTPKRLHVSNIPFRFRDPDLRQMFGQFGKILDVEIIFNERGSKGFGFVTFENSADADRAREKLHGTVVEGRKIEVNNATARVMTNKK
UAUUUUUAAUAUGUAAAUUCUCUCAAAAGGGUCAGGCACCUAGUUAUUAUUUUUUAAUGAUUAUGUGAAAGUUGAAUAUAAUAUACCACUAAAAGUGACAGUUGAAAGUG: 0.429
ACCCCCAACCCUGCUCUUGGGUACCCAGAGGGGUCAUUUCUGAAUCCCUUGCCCAGAGGACAGACCUCCGGGGCCCAUCUUGGCCCUGGGAAAGGGCUCUCCUCUCUGAU: 0.385
ACUUAGAAAUACACGUAUGGUUAAUGUUCAGUCCAACAAACCACACACAGUAAAUGUUUAUUAAUAGUCAUGGUUCGUAUUUUAGGUGACUGAAAUUGCAUCAGUGAUCA: 1.91
GCAGUCAAGGAAAACUAGCCUUGAAUUUUUUUUAGAUAAAAUAAGAUGGUGAUAUGAAACAAAAAGUGGCAAUUAUUGCAGGUUUCCUUUUAGUUUACAAAAGUACUGGA: 0.625
GCAGAGCCUCUGCAGCGAUCUUCUCCAACUGUUCUGUAAUCUCUACUCAACAAUAAGGUUUUAGUUACUGUAUACACUUAACCAAGUUGUGUGACCUAUGACCUACUUUG: 0.349
AUGGGUUUUGGAUUAGCAUCAGUCCUGUGUCACCAAGUGCCAAACAGCUGAGGGGUAGAAGUGGGACUCCUUUCCCGAGCCCCAGCAUGAGGCUGUGGUGUCAGGUUUAG: 5.69
CUGACCCUGAAGGAGUGGUGCUGCCAGGCCUGUCCUGGCUUUCUGGGGUGUGCUGGGAGGAUUACCAAGGCCCCCUUUUUUUGUGCCCUCUUGAAUCCAAGUGUCUGUAG: 0.767
UUGUACAUUGAGAGGAGGGGCUUGGUUUCACCAUCCCCGUCCUUUCCCCACGGAUCCACCAGGAUUGAAGGAGCUUCGGACCCAUGCCGCCUUCUUUUCCCACGCCUCUA: 0.306
GAUUGACUAGAAUAUUUCUCCCCCCUGCCCCUUGAUGUGUGAUGUCACCACCUGGUCCUAAUUUAUGUGCAGGAGCACGACACCACUUGUCUCCAGCGCCACACAUCCGA: 0.476
GAAGAUGGGAGCCCUUGCGCUAAAGCUUCAUAGGGUUUUGUUGUUGUUUUCUUGCCUGUUUUAGGGGAGAGCUGAGGCCAGCUGCCCCUCCCCCAAGUGGCCAGGGAGGG: 0.668
CUGGAAAUCACUGCCACAGUACAGGCUGUGACUGCAGAUGCCAAAAUGAUUAGGAUGCCACAGAUGGUACAUCUAGUGGUCCAGAUAGGAUCCCUCCUGAAAUCUCCUAC: 0.245
UACACACUUACCUGUCUCAGACUCACAUGUACUAUCAUCUGAUGUACUCUGAUUGGCUAGUUUGGGUUCAUUUUUACUGUAUAUUUAUAGUAAUAAAAUCAUGCAGCAAU: 0.244

Block 4
Target: Interferon regulatory factor 5, full length, phosphomimetic (IRF5, Homo sapiens, UniProt Q13568-2, residues 1-514, K96S/S451D/S453D/S456D/S462D)
Method: protein-binding microarray
Molecule type: double-stranded DNA, one strand shown
Medium: in vitro
Tested at: 250 nM
Notes: 60-bp whole probe
With: salmon DNA 0.4 mg/ml
Relative to: random background probes
Reading: higher = stronger binding
Quantity: log fluorescence
Constant ends, left off below: GCCTAGCAC … GTCTTGATTCGCTTGACGCTGCTG
GACGGTATCCTTTTCCTGACGTGCTAG: 0.405 z-score
GACGAGTTCGGGACTGGAGACGTGCTA: -0.48 z-score
TCACCTCTGTCATTTTCACTGTGCTAG: 1.85 z-score
TCACATTTTGTTTTTCAACTGTGCTAG: 1.5 z-score
GACGGACTGTGTTTCGGGACGTGCTAG: 2.17 z-score
GACGGTATCGGACTCGGGACGTGCTAG: 0.911 z-score
TTAGGACTGGTACTGGGTTAGTGCTAG: -0.667 z-score
CTCTCTTCACATATAATTTTGTGCTAG: 0.685 z-score
GACGATATCAGTAACGAGACGTGCTAG: 0.951 z-score
CACGTTGCTCAAGGGCTTGAGTGCTAG: -0.333 z-score
TTAGAACTGGGGTTTTGATTAGTGCTA: 0.341 z-score
GTAGGACTGGACTTTCGGTTAGTGCTA: 9.04 z-score
TTTGATTTCAGACTGGATTAGTGCTAG: 0.711 z-score
TTAGGACTGAGTTTCGATTAGTGCTAG: 9.24 z-score
TTAGATTCCAGTTTCGTTTAGTGCTAG: 8.36 z-score
TTAGGTCTCCTACTGCTTTCGTGCTAG: 0.675 z-score
GAAGGTATCCTTTTCCTGACGTGCTAG: 0.502 z-score
TCATCTTTCCTTACTTCACTGTGCTAG: 1.23 z-score
TTAGGTATCGACTATCGCTTAGTGCTA: 5.47 z-score
TTAGGACGGGGACTGGGTTAGTGCTAG: -0.179 z-score
GCCGGTTTCGGTATCGGGACGTGCTAG: 10.4 z-score

Block 5
Target: Histone acetyltransferase KAT6A, winged helix 2, GST fusion (KAT6A, Homo sapiens, UniProt Q92794, residues 85-181)
Method: protein binding microarray
Molecule type: double-stranded DNA, one strand shown
Medium: in vitro
Tested at: not given
Notes: 8-mer, flanks averaged, mean of 2 arrays, mostly near background
Relative to: not given
Reading: higher = stronger binding
Quantity: E-score
Residues (chain): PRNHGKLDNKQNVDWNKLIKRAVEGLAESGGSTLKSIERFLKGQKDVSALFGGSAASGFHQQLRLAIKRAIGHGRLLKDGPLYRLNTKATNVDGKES
ATAATGAC: -0.151
GGACCGAA: 0.184
ATCTGACC: 0.0444
CGTGCGGC: 0.151
AAAAAAAC: -0.0736
GCCATACC: -0.0633
GATCGCAC: -0.00365
ATCGCCGA: 0.21
CACTATCA: -0.148
CCCTGCTA: -0.0213
AGTCGAAT: -0.0292
GGCCCTAA: 0.00556
AATCACCA: 0.0345
GGAGTGTA: -0.214
CTTATTAA: 0.0535
CCATCGGA: 0.0151
ACAATTTC: -0.204
ACTGTATA: -0.153
ATCTGAAA: 0.0992
AATAGAAT: -0.0162
GTTCCAAA: 0.074
CGAGGCCC: 0.0704

Block 6
Target: Probable WRKY transcription factor 50, DNA-binding domain (WRKY50, Arabidopsis thaliana, UniProt Q8VWQ5, residues 99-173)
Method: DNA-protein interaction ELISA
Molecule type: double-stranded DNA, one strand shown
Medium: in vitro, bacterial lysate
Tested at: not given
Notes: whole dsDNA probe, crude lysate protein
Relative to: highest signal in screen
Reading: higher = stronger binding
Quantity: relative absorbance
Target sequence (chain): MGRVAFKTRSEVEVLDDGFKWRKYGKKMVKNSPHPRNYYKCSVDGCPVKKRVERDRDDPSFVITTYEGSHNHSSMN
AAAAAAGTTATTATACCTGATCTCGCAAAA: 11.9 % of maximum
AAAAAAGGGGTCCTTTTCCAATGTCTAAAA: 53.3 % of maximum
AAAAAAGAGTGGTTTATTAATGTATAAAAA: 16 % of maximum
AAAAAAGGTCCAGTCCACGTCATCAGAAAA: 98 % of maximum
AAAAAATCTGTTCTCGTTTCCCCTTCAAAA: 49.3 % of maximum
AAAAAATGGAAGGAGAGGGATGAAATAAAA: 33.3 % of maximum
AAAAAAGCATATCTTCAGAACTTGCCAAAA: 10.1 % of maximum
AAAAAATGTCTTCTTACACCCTCTAGAAAA: 8.99 % of maximum
AAAAAAGTCCATAAACTAAATTGGATAAAA: 21.7 % of maximum
AAAAAATTTTGTGGTGTTTCGCCACCAAAA: 15.5 % of maximum
AAAAAATCCACGACTCAGCAGCTCTTAAAA: 19.9 % of maximum
AAAAAACCCGCCGTCGTGATTATCACAAAA: 12.8 % of maximum
AAAAAATCAAAACAACGATGCCGTTAAAAA: 21.1 % of maximum
AAAAAACGCCGGACAATCAGGCGCTCAAAA: 19.9 % of maximum
AAAAAATTAGGACCATCCCCACTAGGAAAA: 8.36 % of maximum
AAAAAATCGTAAATGCCCATAGCCGTAAAA: 14.9 % of maximum
AAAAAAGCTCCCGTCTCTTAGTTCTAAAAA: 12.5 % of maximum
AAAAAATCGCGAACGTACGTCCGCGGAAAA: 9.97 % of maximum
AAAAAAGGCCACGGTAACCCCTTTTGAAAA: 10.3 % of maximum
AAAAAAGGGTTTGTCGGGAATTGCCGAAAA: 10 % of maximum
AAAAAAATCATCCTATTGTTGCTGTCAAAA: 10.1 % of maximum
AAAAAACTTCCCTCCTTGTCCTCCCCAAAA: 24.5 % of maximum
AAAAAACCGTATGTATATCTATATGTAAAA: 47.7 % of maximum
AAAAAATACTCTTCCTCGTTCTTGGTAAAA: 17.3 % of maximum
AAAAAACTACGTATATTCAGGCCCTAAAAA: 9.02 % of maximum

Single results of other studies
PhoQ, residues 284 288 289 292 302 303 TNASYF
fold induction (PhoP, residues 12 14 15 18 19 LHATL (Escherichia coli, UniProt P23836); Sort-seq, refers to: YFP reporter; E. coli; PhoQ-PhoP variant library, with: 10 µM Mg2+; relative to: high Mg2+ state, higher = stronger signaling): 17.2

Repeated from above (block 4):
GACGGACTGTGTTTCGGGACGTGCTAG: 2.17 z-score
CACGTTGCTCAAGGGCTTGAGTGCTAG: -0.333 z-score
TTAGGACTGAGTTTCGATTAGTGCTAG: 9.24 z-score
TTAGAACTGGGGTTTTGATTAGTGCTA: 0.341 z-score
TTAGGTATCGACTATCGCTTAGTGCTA: 5.47 z-score
TCACATTTTGTTTTTCAACTGTGCTAG: 1.5 z-score
GACGAGTTCGGGACTGGAGACGTGCTA: -0.48 z-score
TTTGATTTCAGACTGGATTAGTGCTAG: 0.711 z-score
CTCTCTTCACATATAATTTTGTGCTAG: 0.685 z-score
GACGGTATCGGACTCGGGACGTGCTAG: 0.911 z-score
GACGGTATCCTTTTCCTGACGTGCTAG: 0.405 z-score
TTAGGACGGGGACTGGGTTAGTGCTAG: -0.179 z-score
